Assay results from different studies.
Protocols differ between the studies behind these lines. Numbers after ± are the reported error.

`C[C@H](O)[C@@H](NC(=O)[C@H]1CCCN1C(=O)[C@@H](CCCCN)NC(=O)[C@@H](CO)NC(=O)[C@@H](Cc1ccc(O)cc1)NC(=O)[C@@H](CC(N)=O)NC(=O)CCOCCOCCOCCNC(=O)CN1CCN(CC(=O)O)CCN(CC(=O)O)CCN(CC(=O)O)CC1)C(=O)N[C@H](CC(=O)O)C(=O)N[C@H](CCCNC(=N)N)C(=O)N[C@H](CCC(N)=O)C(=O)N[C@H](Cc1ccc(O)cc1)C(=O)N[C@H](Cc1c[nH]cn1)C(=O)N[C@H](Cc1ccccc1)C(N)=O` [copper-64 labelled] gave a tissue uptake of 1.29 ± 0.08 %ID/g (C57BL/6J mice, liver; intravenous, 1.85 MBq, 1.333 h, radiolabelled).
The tissue uptake of `CC(C)C[C@@H](NC(=O)[C@@H](CCCNC(=N)N)NC(=O)[C@@H](Cc1c[nH]cn1)NC(=O)[C@@H](Cc1c[nH]c2ccccc12)NC(=O)[C@@H](Cc1c[nH]cn1)NC(=O)[C@@H](Cc1ccccc1)NC(=O)[C@H](NC(=O)[C@@H](Cc1ccc(O)cc1)NC(=O)CNC(=O)CNC(=O)CCOCCOCCOCCNC(=O)CN1CCN(CC(=O)O)CCN(CC(=O)O)CC1)[C@H](C)O)C(=O)N[C@H](CC(N)=O)C(=O)N1CCC[C@@H]1C(=O)O` [gallium-68 labelled] is reported as 27.3 ± 5.62 %ID/g (gamma counting; C57BL/6 mice, male, kidney; intravenous, 1.85 MBq, 120 min).
`CCCC[C@H]1C(=O)N(C)[C@@H](CCCC)C(=O)N[C@@H](CCCNC(=O)CN2CCN(CC(=O)O)CCN(CC(=O)O)CCN(CC(=O)O)CC2)C(=O)N[C@H](C(=O)NCC(N)=O)CSCC(=O)N[C@@H](Cc2ccc(O)cc2)C(=O)N(C)[C@@H](C)C(=O)N[C@@H](CC(N)=O)C(=O)N2CCC[C@H]2C(=O)N[C@@H](Cc2c[nH]cn2)C(=O)N[C@@H](CC(C)C)C(=O)N(C)CC(=O)N[C@@H](Cc2c[nH]c3ccccc23)C(=O)N[C@@H](CO)C(=O)N[C@@H](Cc2c[nH]c3ccccc23)C(=O)N1C` [gallium-68 labelled] gave a tissue uptake of 3.53 ± 0.68 %ID/g (NOD/SCID mice, CHO-hPD-L1 xenograft, skin; 60 min, PBS pretreatment).
The tissue uptake of `CC[C@H](C)[C@H](NC(=O)[C@H](CCCCN)NC(=O)CNC(=O)[C@H](CC(C)C)NC(=O)[C@H](Cc1ccccc1)NC(=O)[C@H](CCCCN)NC(=O)[C@H](CO)NC(=O)[C@H](Cc1ccccc1)NC(=O)[C@H](Cc1c[nH]c2ccccc12)NC(=O)[C@H](CCC(N)=O)NC(=O)[C@@H](NC(=O)[C@H](Cc1ccccc1)NC(=O)CCCCCNC(=O)CN1CCN(CC(=O)O)CCN(CC(=O)O)CCN(CC(=O)O)CC1)C(C)C)C(=O)N[C@@H](CCC(=O)O)C(=O)N1CCC[C@H]1C(=O)N[C@@H](CC(=O)O)C(=O)N[C@H](C(=O)N[C@@H](CO)C(=O)N[C@@H](CCC(N)=O)C(=O)N[C@H](C(=O)N[C@@H](CCC(N)=O)C(=O)N[C@@H](CC(=O)O)C(=O)N1CCC[C@H]1C(=O)N[C@@H](CC(N)=O)C(=O)N[C@@H](CC(=O)O)C(=O)N[C@@H](CCC(N)=O)C(=O)N[C@@H](Cc1ccc(O)cc1)C(=O)N[C@@H](CCC(=O)O)C(=O)N1CCC[C@H]1C(=O)N[C@@H](Cc1ccccc1)C(=O)O)C(C)C)C(C)C` [copper-64 labelled] is reported as 2.22 ± 0.2 %ID/g (C57BL/6 mice, male, tumour-free, heart; 2 h).
For `[2H]C([2H])([18F])[C@]([2H])(N)C(=O)O`, the tissue uptake was 0.71 ± 0.09 %ID/cc (PET; athymic nude mice, U-87 MG, muscle; dose not given, 60 min post-injection).
For `CSCC[C@H](NC(=O)CNC(=O)[C@H](CCCCN)NC(=O)[C@H](CC(C)C)NC(=O)[C@@H]1CCCN1C(=O)[C@H](CO)NC(=O)[C@H](Cc1c[nH]cn1)NC(=O)[C@H](Cc1c[nH]c2ccccc12)NC(=O)[C@H](CCCNC(=N)N)NC(=O)[C@H](CC(C)C)NC(=O)[C@H](CCCNC(=N)N)NC(=O)[C@H](Cc1c[nH]c2ccccc12)NC(=O)[C@H](CS)NC(=O)CCCCCNC(=O)CN1CCN(CC(=O)O)CCN(CC(=O)O)CCN(CC(=O)O)CC1)C(=O)O` [copper-64 labelled], the tissue uptake was 0.5 %ID/g (ex vivo biodistribution; BALB/c nude mice, muscle; intravenous, dose not given, 2 h, Huh-7 tumour-bearing).
`CC[C@H](C)[C@H](NC(=O)[C@@H](Cc1c[nH]c2ccccc12)NC(=O)[C@@H]1CCCN1C(=O)[C@H](CCCCN)NC(=O)[C@H](CCCCN)NC(=O)CCNC(=O)CCNC(=O)CN1CCN(CC(=O)O)CCN(CC(=O)O)CCN(CC(=O)O)CC1)C(=O)N[C@@H](C[Si](C)(C)C)C(=O)O` [gallium-68 labelled] gave a tissue uptake of 0.57 ± 0.1 %ID/g (ex vivo biodistribution; nude mice, HT-29 xenograft, intestine; 90 min, with: levocabastine 0.5 µmol).
With `CC[C@H](C)[C@H](NC(=O)[C@H](CCCNC(=N)N)NC(=O)[C@H](CCCCN)NC(=O)[C@H](Cc1ccc(O)cc1)NC(=O)[C@H](CC(=O)O)NC(=O)[C@H](C)NC(=O)CNC(=O)CCOCCOCCOCCNC(=O)CN1CCN(CC(=O)O)CCN(CC(=O)O)CCN(CC(=O)O)CC1)C(=O)N[C@H](C(=O)N[C@@H](CC(C)C)C(=O)N[C@@H](CCCCN)C(=O)N[C@H](C(=O)N[C@@H](CC(N)=O)C(N)=O)C(C)C)[C@@H](C)O` [copper-64 labelled] the tissue uptake was 0.126 ± 0.053 %ID/g (ex vivo gamma counting; C57BL/6J male mice, B16-F10 tumour, brain; intravenous, 1.85 MBq, 20 min).
